Results from different studies.
Parts stem from different laboratories: compare values within a part only.

Series 1
Cell line: HEK-293T/ACE2
Concentration: 10 µM
Time: 16 h
Baseline: vehicle
The viability of `CNCC[C@@H](Oc1ccccc1C)c1ccccc1` is reported as 99.2%.
With `COc1ccccc1OCC(O)COC(N)=O` (stereo not shown) the viability was 98.4%.
The viability of `CC(C)Cc1ccc(C(C)C(=O)O)cc1` (stereo not shown) is reported as 98.4%.
`CC(=O)c1ccc(S(=O)(=O)NC(=O)NC2CCCCC2)cc1` gave a viability of 101%.
`CO/N=C(\C(=O)N[C@@H]1C(=O)N2C(C(=O)OCOC(=O)C(C)(C)C)=C(/C=C\c3scnc3C)CS[C@H]12)c1csc(N)n1` has a viability of 98.2%.

Series 2
Target: RNA binding protein fox-1 homolog 2, RRM domain, GST-SBP tag (RBFOX2, Homo sapiens, UniProt O43251-10, residues 100-194)
Technique: RNA Bind-n-Seq
Molecule type: RNA
Matrix: in vitro
Concentration: 365 nM
Setting: natural RNA segment, single round, ends assumed
Baseline: no-protein control
Reading: higher = stronger binding
Residues (chain): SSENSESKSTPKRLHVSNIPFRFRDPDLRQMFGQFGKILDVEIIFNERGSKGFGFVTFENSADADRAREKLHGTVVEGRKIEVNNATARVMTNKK
For `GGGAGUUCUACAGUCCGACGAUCACUGUACAGAUGUGCAUUUUCCUUUUGGUAUAAAUGGUCCACAGCACUAACUGGUAAGGCUUAUUGUACAGUAUAUUGUCAGUAUUCUUCUGGUUCAGCAUACCUUAUAGUGGAAUUCUCGGGUGCCAA`, “RBNS enrichment (R)” read 0.527.
Under “RBNS enrichment (R)”, `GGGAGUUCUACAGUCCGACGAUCGCUGGGACCUAUAACGUCUUAGGUGCAACAAGGACCCUACCAGAGCUCCUGGGUGGCUUUGUGUGAGGGGACUGAACGCAGACAAACCACAGCCUGCUUCUAAUACCUUCUGGAAUUCUCGGGUGCCAA` is recorded as 0.356.
`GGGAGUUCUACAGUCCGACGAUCCCCCACCUACCCUGGCACUUGCCCUGUGACAUGAUGGGUGAGGCUGUGGGGGAACUCAGUGGCAGGAAGCUAGUGGUCCCUGGGAACAGGGGACAGGAAUCCGUACCCAAUGGAAUUCUCGGGUGCCAA` — result for “RBNS enrichment (R)”: 0.409.
`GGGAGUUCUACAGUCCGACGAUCAUCUAGUCUAUUUGUGUUAAAACAUGCUUUCAGAUGGAAGACGAACAUUCAUCUUAUAAAUGAACAGAAAAUAAACUAGUCUGGCCCUUUGAGUUUGUCACUCCAGUAACUGGAAUUCUCGGGUGCCAA` — result for “RBNS enrichment (R)”: 0.381.
Under “RBNS enrichment (R)”, `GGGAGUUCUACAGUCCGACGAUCAAGGCAGAGCUGGGAUGAAAACAGGGCUGAAAAGACUCAGGGCCAAUUAUUGGCUGAGCCCACGGUCCCCUCAGCAGGGAUGCGAUGGUCUCUGAAUCAGUGUGCAGCUGUGGAAUUCUCGGGUGCCAA` is recorded as 0.503.
For `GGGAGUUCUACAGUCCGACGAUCGGAGAGUUCAAGUCUUUGUCGUUACACACUGCUGUUUUGAUUAUUGGUCUUAGUUUUGAUCCUGUUGCAGCAAAAUCCUGCAGCAUCUUUCUCUCCAAUAAUGUUGCAACUGGAAUUCUCGGGUGCCAA`, “RBNS enrichment (R)” read 0.313.
`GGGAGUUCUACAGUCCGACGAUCCUCUGUUUUGCUGGGUCUGUGGAGCCCACUUGAGCCCAGCAGUUAACUCCCCUGGCACUCAGCUCUGCCUCUAGUUCAGCCGCCCAGCCACUGAGAGUCAGGGCAUGGUGUGGAAUUCUCGGGUGCCAA`: “RBNS enrichment (R)” 0.307.
`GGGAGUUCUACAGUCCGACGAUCAGUGGUGUCAGGAUGAGGUGGCCCCUGGCUUUCUGGUUCACAACAAGCUAGAGAUUUUCAAAGCUACCCUUUUGAGUAAAACCCCUUAUUAAAAGAGAAACCAUGACUGGUGGAAUUCUCGGGUGCCAA`: “RBNS enrichment (R)” 0.379.

Series 3
Target: Replicase polyprotein 1ab, nsp12 with nsp7/nsp8 (rep, Severe acute respiratory syndrome coronavirus 2, UniProt P0DTD1)
Observed: polymerase activity
Organism: SARS-CoV-2
Concentration: 20 µM
`O=S(=O)(O)c1ccc(-c2c3nc(c(-c4ccc(S(=O)(=O)O)cc4)c4ccc([nH]4)c(-c4ccc(S(=O)(=O)O)cc4)c4nc(c(-c5ccc(S(=O)(=O)O)cc5)c5ccc2[nH]5)C=C4)C=C3)cc1` gave an inhibition of 31.3%.
With `CC(C)N[C@@H]1CCn2c(=O)[nH]c3cccc(c32)[C@H]1O` the inhibition was 11.3%.
`Cc1ccc(-n2sc(=O)n(Cc3ccc(F)cc3)c2=O)cc1` has an inhibition of -1.91%.
`O=C1C(c2ccccn2)=[N+]([O-])c2ccccc21` gave an inhibition of 1.69%.
The inhibition of `N#CSc1cc(SC#N)c(N)nc1N` is reported as 29.3%.
For `O=C1C=CC(=O)C2=C1C1c3ccccc3C2c2ccccc21`, the inhibition was -5.44%.
With `CC(=O)OC[C@H]1O[C@@H]([S-])[C@H](OC(C)=O)[C@@H](OC(C)=O)[C@@H]1OC(C)=O.CCP(CC)CC.[Au+]` the inhibition was -4.54%.
The inhibition of `O=C(O)c1ccc(SSc2ccc(C(=O)O)cn2)nc1` is reported as -0.12%.

Series 4
Target: Replicase polyprotein 1ab, main protease (rep, Severe acute respiratory syndrome coronavirus 2, UniProt P0DTD1)
Observed: enzyme activity
Action: inhibitor
Concentration: 20 µM
Setting: primary screen
`S=c1nn[nH]n1-c1ccccc1` gave an inhibition of 97.8%.
`CC(C)(C)c1cc(O)c(C(C)(C)C)cc1O` has an inhibition of 25.9%.
For `COC(=O)CC[C@H](NC(=O)[C@H](CC(=O)OC)NC(=O)OCc1ccccc1)C(=O)N[C@H](C(=O)N[C@@H](CC(=O)OC)C(=O)CF)C(C)C`, the inhibition was 100%.
The inhibition of `Nc1sc2c(c1C(=O)c1ccc(Cl)cc1)CCCC2` is reported as 33.4%.
